Measured values collected from several papers.
Each numbered part is a random draw from the data of one study; scales do not carry over between parts.
Chain of UniProt P29320 (whole entry, looked up): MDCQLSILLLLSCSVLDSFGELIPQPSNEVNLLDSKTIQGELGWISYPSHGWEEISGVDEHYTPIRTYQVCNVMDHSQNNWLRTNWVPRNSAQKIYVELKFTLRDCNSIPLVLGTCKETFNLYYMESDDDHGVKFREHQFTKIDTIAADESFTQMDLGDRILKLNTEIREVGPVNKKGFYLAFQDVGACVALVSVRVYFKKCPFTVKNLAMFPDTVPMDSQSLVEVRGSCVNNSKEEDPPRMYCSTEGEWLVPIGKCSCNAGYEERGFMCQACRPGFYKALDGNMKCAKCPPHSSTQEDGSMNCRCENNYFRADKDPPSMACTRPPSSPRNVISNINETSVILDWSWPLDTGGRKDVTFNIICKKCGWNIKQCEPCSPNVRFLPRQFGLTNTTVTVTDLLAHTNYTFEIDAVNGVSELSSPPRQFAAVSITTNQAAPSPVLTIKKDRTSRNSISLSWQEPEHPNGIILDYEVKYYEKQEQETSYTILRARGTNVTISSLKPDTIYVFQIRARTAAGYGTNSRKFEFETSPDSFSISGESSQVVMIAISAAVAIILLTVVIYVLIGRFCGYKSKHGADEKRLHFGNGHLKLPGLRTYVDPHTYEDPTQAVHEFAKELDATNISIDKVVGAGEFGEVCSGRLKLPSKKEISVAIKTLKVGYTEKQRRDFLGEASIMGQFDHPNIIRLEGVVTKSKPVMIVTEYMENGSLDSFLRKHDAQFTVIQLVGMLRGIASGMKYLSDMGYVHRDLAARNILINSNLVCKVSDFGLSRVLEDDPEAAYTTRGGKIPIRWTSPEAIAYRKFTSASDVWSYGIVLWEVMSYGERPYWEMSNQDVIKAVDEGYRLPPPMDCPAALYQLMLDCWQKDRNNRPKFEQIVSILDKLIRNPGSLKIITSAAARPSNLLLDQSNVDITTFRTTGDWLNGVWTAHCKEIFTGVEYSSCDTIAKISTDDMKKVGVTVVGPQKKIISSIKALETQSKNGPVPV
Chain of UniProt P49841 (whole entry, looked up): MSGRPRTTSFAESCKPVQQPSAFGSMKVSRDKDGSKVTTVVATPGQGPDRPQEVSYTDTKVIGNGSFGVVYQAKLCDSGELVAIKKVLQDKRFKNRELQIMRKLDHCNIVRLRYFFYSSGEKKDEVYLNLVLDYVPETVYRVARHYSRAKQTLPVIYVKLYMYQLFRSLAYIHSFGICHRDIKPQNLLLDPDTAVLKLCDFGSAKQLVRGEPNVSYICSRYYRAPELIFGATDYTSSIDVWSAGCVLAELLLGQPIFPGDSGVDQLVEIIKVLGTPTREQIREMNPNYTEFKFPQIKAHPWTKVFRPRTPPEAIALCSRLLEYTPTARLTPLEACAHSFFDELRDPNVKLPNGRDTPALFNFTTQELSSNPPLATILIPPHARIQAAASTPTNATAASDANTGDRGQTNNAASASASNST
Chain of UniProt Q8TDX7 (whole entry, looked up): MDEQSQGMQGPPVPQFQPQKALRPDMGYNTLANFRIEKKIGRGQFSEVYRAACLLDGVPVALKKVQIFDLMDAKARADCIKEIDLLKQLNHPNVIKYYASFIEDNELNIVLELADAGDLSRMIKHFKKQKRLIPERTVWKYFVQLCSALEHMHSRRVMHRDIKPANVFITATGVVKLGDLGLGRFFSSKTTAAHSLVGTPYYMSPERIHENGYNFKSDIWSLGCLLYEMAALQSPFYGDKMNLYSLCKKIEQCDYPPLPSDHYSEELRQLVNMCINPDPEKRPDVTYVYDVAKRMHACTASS
Chain of UniProt Q13705 (whole entry, looked up): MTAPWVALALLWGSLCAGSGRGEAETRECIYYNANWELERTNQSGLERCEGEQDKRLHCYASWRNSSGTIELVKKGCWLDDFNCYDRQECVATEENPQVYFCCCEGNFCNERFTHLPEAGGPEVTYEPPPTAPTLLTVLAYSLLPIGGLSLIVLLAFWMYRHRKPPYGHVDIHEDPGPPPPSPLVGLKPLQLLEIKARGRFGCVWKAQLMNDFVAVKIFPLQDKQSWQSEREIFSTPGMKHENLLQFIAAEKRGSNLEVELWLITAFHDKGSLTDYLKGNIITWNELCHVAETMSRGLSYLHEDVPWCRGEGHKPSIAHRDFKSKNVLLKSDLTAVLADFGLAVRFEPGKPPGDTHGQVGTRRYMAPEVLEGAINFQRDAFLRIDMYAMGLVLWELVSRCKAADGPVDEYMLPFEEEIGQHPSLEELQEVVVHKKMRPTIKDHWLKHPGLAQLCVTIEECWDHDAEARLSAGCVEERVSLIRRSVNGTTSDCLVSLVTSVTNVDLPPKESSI
Chain of UniProt Q9C098 (whole entry, looked up): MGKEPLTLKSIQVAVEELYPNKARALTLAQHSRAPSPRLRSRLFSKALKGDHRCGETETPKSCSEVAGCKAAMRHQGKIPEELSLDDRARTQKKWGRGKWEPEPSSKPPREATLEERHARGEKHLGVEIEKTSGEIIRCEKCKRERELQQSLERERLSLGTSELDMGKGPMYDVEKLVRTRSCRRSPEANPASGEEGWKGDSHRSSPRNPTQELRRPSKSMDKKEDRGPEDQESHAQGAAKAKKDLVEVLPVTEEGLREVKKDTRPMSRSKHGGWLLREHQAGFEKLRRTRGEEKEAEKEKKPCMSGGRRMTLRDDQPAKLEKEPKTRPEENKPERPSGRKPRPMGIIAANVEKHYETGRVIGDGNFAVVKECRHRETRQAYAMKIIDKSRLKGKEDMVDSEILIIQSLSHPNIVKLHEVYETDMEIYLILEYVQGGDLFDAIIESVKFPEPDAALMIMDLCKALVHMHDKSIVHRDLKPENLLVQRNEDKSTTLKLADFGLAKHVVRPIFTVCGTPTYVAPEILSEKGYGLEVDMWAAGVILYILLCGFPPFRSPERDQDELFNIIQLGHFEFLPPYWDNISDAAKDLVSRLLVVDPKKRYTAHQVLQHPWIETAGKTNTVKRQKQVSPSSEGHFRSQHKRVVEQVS
Chain of UniProt P30291 (whole entry, looked up): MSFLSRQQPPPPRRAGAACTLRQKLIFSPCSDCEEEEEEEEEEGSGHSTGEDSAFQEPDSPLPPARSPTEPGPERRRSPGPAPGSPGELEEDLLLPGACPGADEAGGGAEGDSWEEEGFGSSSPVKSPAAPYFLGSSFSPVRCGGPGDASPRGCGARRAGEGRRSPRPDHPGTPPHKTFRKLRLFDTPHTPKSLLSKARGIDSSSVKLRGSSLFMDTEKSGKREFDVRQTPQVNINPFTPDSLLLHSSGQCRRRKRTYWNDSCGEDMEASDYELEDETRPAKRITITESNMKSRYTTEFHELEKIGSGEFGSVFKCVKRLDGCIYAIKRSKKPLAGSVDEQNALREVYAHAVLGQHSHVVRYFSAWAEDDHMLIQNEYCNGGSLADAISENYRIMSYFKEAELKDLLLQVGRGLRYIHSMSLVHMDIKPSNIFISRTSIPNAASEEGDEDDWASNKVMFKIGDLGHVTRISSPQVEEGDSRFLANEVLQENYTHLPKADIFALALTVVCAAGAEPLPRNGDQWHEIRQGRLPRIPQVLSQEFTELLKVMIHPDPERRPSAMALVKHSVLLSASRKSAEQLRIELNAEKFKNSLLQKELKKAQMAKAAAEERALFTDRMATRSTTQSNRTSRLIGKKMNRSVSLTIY
Chain of UniProt P0C1S8 (whole entry, looked up): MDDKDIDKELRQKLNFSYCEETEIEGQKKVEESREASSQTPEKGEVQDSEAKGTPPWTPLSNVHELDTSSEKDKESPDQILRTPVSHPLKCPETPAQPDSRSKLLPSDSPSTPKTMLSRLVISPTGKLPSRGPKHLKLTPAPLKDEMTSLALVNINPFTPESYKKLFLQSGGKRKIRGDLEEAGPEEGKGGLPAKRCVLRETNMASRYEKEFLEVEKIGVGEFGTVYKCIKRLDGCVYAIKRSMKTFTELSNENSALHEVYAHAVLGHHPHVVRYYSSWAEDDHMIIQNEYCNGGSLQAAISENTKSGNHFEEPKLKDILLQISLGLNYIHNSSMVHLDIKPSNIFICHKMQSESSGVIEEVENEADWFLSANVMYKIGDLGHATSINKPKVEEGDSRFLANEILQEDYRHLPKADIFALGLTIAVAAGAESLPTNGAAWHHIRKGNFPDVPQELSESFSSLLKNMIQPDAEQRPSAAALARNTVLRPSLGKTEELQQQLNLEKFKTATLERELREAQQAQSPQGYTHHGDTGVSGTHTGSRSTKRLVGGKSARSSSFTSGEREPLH
Chain of UniProt P11362 (whole entry, looked up): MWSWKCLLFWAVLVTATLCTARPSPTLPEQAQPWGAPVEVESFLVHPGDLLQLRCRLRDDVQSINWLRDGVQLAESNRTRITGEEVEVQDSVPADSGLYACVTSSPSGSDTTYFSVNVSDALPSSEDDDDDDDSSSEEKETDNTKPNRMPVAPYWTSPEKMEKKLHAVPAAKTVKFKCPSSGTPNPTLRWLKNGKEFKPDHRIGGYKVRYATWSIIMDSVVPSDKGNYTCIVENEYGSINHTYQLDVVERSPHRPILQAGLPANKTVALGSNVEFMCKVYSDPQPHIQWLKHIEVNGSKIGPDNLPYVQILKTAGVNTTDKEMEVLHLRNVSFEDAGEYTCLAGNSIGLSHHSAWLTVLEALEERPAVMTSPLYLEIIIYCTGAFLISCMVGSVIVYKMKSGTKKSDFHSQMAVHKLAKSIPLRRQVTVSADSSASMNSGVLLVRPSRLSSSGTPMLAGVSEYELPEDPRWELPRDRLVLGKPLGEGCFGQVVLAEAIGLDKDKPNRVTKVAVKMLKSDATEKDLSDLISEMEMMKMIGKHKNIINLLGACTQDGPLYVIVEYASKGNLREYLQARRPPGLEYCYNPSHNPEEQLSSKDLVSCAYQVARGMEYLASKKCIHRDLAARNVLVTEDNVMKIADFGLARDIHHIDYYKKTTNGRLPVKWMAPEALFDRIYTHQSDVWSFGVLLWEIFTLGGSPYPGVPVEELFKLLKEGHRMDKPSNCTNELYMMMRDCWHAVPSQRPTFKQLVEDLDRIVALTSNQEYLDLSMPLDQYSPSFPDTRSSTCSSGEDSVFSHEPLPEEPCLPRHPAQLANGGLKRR

Set 1
Compound: COc1ccc2[nH]c3c4[nH]c5ccc(OC)cc5c4c4c(c3c2c1)C(=O)NC4=O
Tested at: 1 µM
target	observed	technique	remaining binding [%]
TLK1 (Homo sapiens, UniProt Q9UKI8)	binding		100
Non-receptor tyrosine-protein kinase TYK2, JH1 (TYK2, Homo sapiens, UniProt P29597)	cell-free assay	competition with immobilised ligand	87
DCLK3 (Homo sapiens, UniProt Q9C098)	binding	competition with immobilised ligand	19
HCK (Homo sapiens, UniProt P08631)	binding	competition with immobilised ligand	74
ACVR2A (Homo sapiens, UniProt P27037)	binding	competition with immobilised ligand	58

Set 2
Compound: Cc1cc(Nc2nc(-c3ccccc3)nc3ccccc23)n[nH]1
Observed: enzyme activity
Action: inhibitor
Tested at: 0.5 µM
Baseline: control
target	remaining activity
EPHA3 (Homo sapiens, UniProt P29320)	88.9%
LCK (Homo sapiens, UniProt P06239)	75.6%
ULK2 (Homo sapiens, UniProt Q8IYT8)	95.1%
GRK7 (Homo sapiens, UniProt Q8WTQ7)	79.2%
NEK6 (Homo sapiens, UniProt Q9HC98)	93.9%
WEE1 (Homo sapiens, UniProt P30291)	88%
TAOK2 (Homo sapiens, UniProt Q9UL54)	90.3%
MAP3K14 (Homo sapiens, UniProt Q99558)	93.5%
MAP2K2 (Homo sapiens, UniProt P36507)	102%
CSNK1G3 (Homo sapiens, UniProt Q9Y6M4)	75%
FGFR3 (Homo sapiens, UniProt P22607)	71.7%
TEK (Homo sapiens, UniProt Q02763)	104%
GSK3B (Homo sapiens, UniProt P49841)	27.9%
FGFR1 (Homo sapiens, UniProt P11362)	48.8%

Set 3
Structure (SMILES): C[C@H](c1ccc(F)cc1)N(Cc1cccc(C(=O)O)c1)C(=O)c1cnc2ccccc2c1
Technique: competition with immobilised ligand
Tested at: 1 µM
target	observed	remaining binding
ACVR2B (Homo sapiens, UniProt Q13705)	binding	100%
EGFR (Homo sapiens, UniProt P00533, del747-752/P753S)	cell-free assay	100%
Tyrosine-protein kinase ABL1, phosphorylated (ABL1, Homo sapiens, UniProt P00519, Y253F)	cell-free assay	100%
WNK4 (Homo sapiens, UniProt Q96J92)	cell-free assay	91%
WEE2 (Homo sapiens, UniProt P0C1S8)	cell-free assay	100%
NEK7 (Homo sapiens, UniProt Q8TDX7)	cell-free assay	100%
Aurora kinase B (AURKB, Homo sapiens, UniProt Q96GD4)	cell-free assay	100%

Set 4
Technique: PRP chromatography
Setting: linear fit, 1 mL
Structure (SMILES)	logD 1,9-decadiene/water [log units]
CC(C)C[C@@H]1NC(=O)[C@H](C)NC(=O)[C@@H](CC(C)C)NC(=O)[C@H](CC(C)C)NC(=O)[C@H](C(C)C)NC(=O)[C@H](CC(C)C)NC(=O)[C@@H](CC(C)C)NC1=O	0.821
CC(C)C[C@@H]1NC(=O)[C@H](C(C)C)NC(=O)[C@@H](CC(C)C)NC(=O)[C@@H](CC(C)C)NC(=O)[C@H](C(C)C)NC(=O)[C@H](CC(C)C)NC(=O)[C@@H](CC(C)C)NC1=O	-3.95
CC(C)C[C@@H]1NC(=O)[C@H](CC(C)C)NC(=O)[C@@H](C(C)C)NC(=O)[C@H](CC(C)C)NC(=O)[C@H](C(C)C)NC(=O)[C@H](C)NC(=O)[C@H](C)NC1=O	-1.33
CC(C)C[C@@H]1NC(=O)[C@H](C)NC(=O)[C@H](C)NC(=O)[C@H](CC(C)C)NC(=O)[C@H](C(C)C)NC(=O)[C@H](CC(C)C)NC(=O)[C@@H](CC(C)C)NC1=O	-1.01
CC(C)C[C@@H]1NC(=O)[C@H](C)NC(=O)[C@@H](CC(C)C)NC(=O)[C@H](C)NC(=O)[C@H](CC(C)C)NC(=O)[C@H](CC(C)C)NC(=O)[C@@H](C(C)C)NC1=O	-0.77
CC(C)C[C@@H]1NC(=O)[C@H](CC(C)C)NC(=O)[C@H](CC(C)C)NC(=O)[C@H](CC(C)C)NC(=O)[C@H](C(C)C)NC(=O)[C@H](C)NC(=O)[C@H](C)NC1=O	-0.842
CC(C)C[C@@H]1NC(=O)[C@H](C(C)C)NC(=O)[C@H](Cc2cscn2)NC(=O)[C@@H](CC(C)C)NC(=O)[C@@H](CCC(=O)N2CCCC2)NC(=O)[C@H](CC(C)C)NC(=O)[C@@H](CC(C)C)NC1=O	-1.2

For quick reference, copied from above (set 4):
Structure (SMILES)	logD 1,9-decadiene/water [log units]
CC(C)C[C@@H]1NC(=O)[C@H](C)NC(=O)[C@@H](CC(C)C)NC(=O)[C@H](CC(C)C)NC(=O)[C@H](C(C)C)NC(=O)[C@H](CC(C)C)NC(=O)[C@@H](CC(C)C)NC1=O	0.821
CC(C)C[C@@H]1NC(=O)[C@H](C(C)C)NC(=O)[C@@H](CC(C)C)NC(=O)[C@@H](CC(C)C)NC(=O)[C@H](C(C)C)NC(=O)[C@H](CC(C)C)NC(=O)[C@@H](CC(C)C)NC1=O	-3.95
CC(C)C[C@@H]1NC(=O)[C@H](CC(C)C)NC(=O)[C@@H](C(C)C)NC(=O)[C@H](CC(C)C)NC(=O)[C@H](C(C)C)NC(=O)[C@H](C)NC(=O)[C@H](C)NC1=O	-1.33
